Results from different studies.
Every numbered part comes from another study and shows a few of its results, in no order. Values joined by “and” are separate records of one study, mostly repeats; a detail may differ.

Set 1
Compound: CNC(=O)Nc1ccc2c(c1)C1(CC2)OC(=O)N(CC(=O)N(Cc2ccc(F)cc2)[C@@H](C)C(F)(F)F)C1=O (single isomer, unassigned)
Concentration: 0.1 µM
Baseline: DMSO
cell line | technique | notes | viability
sample B colorectal tumour organoid |  | replicate 2 | 128%
sample I colorectal tumour organoid |  |  | 108%
normal-adjacent epithelium patient-derived organoids sample H | CellTiter-Glo |  | 91.9% and 103%
colorectal tumour organoids |  |  | 107%
sample B colorectal tumour organoid |  |  | 121%
sample B colorectal tumour organoid |  | replicate 1 | 115%
sample C colorectal tumour organoid |  | replicate 2 | 101%
sample C colorectal tumour organoid |  | replicate 1 | 93.4%

Set 2
Target: Receptor tyrosine-protein kinase erbB-2 (ERBB2, Homo sapiens, UniProt P04626)
Effect on: enzyme activity
Action: inhibitor
Concentration: 0.5 µM
Baseline: control
SMILES | remaining activity [%]
COc1ccc(C(=O)Nc2sc3c(c2C(N)=O)CCCC3)cc1OC | 93.3
N#CC(C#N)=C(N)/C(C#N)=C/c1ccc(O)cc1 | 90.1
COc1cc2ncnc(Nc3ccc(F)c(Cl)c3)c2cc1OCCCN1CCOCC1 | 34.2
OCC(O)CCON=C1C(c2c(O)[nH]c3ccccc23)=Nc2ccccc21 (centres unmarked) | 95.3
Cn1c2ccccc2c2c3c(c4c5ccccc5n(CCC#N)c4c21)CNC3=O | 107
CC(C)[C@H](CO)Nc1nc(Nc2cc(N)cc(Cl)c2)c2ncn(C(C)C)c2n1 | 92.9
Nc1ncnc2n[nH]c(Nc3ccc(F)cc3)c12 | 101
CCOC(=O)c1c(C)[nH]c(/C=C2\C(=O)Nc3ccccc32)c1C | 101
CNC(=O)c1cc(Oc2ccc(NC(=O)Nc3ccc(Cl)c(C(F)(F)F)c3)cc2)ccn1 | 103
O=C(Nc1cccc(Nc2cc(Nc3cccc(C(F)(F)F)c3)ncn2)c1)C1CC1 | 82.5
COc1ccc(CNC(=O)Nc2ncc([N+](=O)[O-])s2)cc1 | 96.9
Nc1[nH]nc2nc3ccccc3nc12 | 95.2
Cc1ccc(Nc2nccc(N(C)c3ccc4c(C)n(C)nc4c3)n2)cc1S(N)(=O)=O | 103
O=C1NC(=O)C(c2cn(CCCn3ccnc3)c3ccccc23)=C1Nc1ccccc1 | 93.6
Nc1ccc2ncnc(NCCc3ccc(Oc4ccccc4)cc3)c2c1 | 108

Set 3
Target: Calcium/calmodulin-dependent protein kinase type II subunit alpha (CAMK2A, Homo sapiens, UniProt Q9UQM7)
UniProt Q9UQM7, sequence (whole entry, looked up): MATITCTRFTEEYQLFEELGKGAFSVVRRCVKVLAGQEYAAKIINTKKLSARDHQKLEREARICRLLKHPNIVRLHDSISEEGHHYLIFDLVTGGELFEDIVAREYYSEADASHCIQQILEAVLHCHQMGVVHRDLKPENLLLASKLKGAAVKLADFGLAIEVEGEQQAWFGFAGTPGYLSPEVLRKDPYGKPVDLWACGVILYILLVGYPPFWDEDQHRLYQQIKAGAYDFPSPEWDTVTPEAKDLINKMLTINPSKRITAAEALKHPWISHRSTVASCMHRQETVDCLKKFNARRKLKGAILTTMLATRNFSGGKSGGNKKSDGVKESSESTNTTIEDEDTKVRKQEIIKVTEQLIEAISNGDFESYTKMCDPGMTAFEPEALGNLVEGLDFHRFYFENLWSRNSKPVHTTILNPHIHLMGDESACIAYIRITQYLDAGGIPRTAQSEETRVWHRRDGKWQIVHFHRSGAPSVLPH
Effect on: enzyme activity
Action: inhibitor
Concentration: 10 µM
Compound | inhibition [%]
O=c1oc2cc(O)ccc2c2oc3cc(O)ccc3c12 | -36
CN(C(=O)CN(CCO)CC(=O)N(C)C(C)(C)Cc1ccccc1)C(C)(C)Cc1ccccc1 | -3
O[C@H]1[C@H](O)[C@H](O)[C@@H](O)[C@H](O)[C@H]1O | 34
Cc1cc2cc3c(C)cc(=O)oc3c(C)c2o1 | -6
C[C@H](CC[C@@H](O[C@@H]1O[C@H](CO[C@@H]2O[C@H](CO)[C@@H](O)[C@H](O)[C@H]2O)[C@@H](O)[C@H](O)[C@H]1O[C@@H]1O[C@H](CO)[C@@H](O)[C@H](O)[C@H]1O)C(C)(C)O)[C@H]1CC[C@@]2(C)[C@@H]3CC=C4[C@@H](CC[C@H](O[C@@H]5O[C@H](CO)[C@@H](O)[C@H](O)[C@H]5O)C4(C)C)[C@]3(C)[C@H](O)C[C@]12C | -14

Set 4
Cell line: mouse MPNST tumor cells
Technique: high-content immunofluorescence imaging
Refers to: nuclear SOX9
Concentration: 10 µM
Time: 12 h
Notes: mean of 2 replicates
Baseline: DMSO control
Direction: higher = more nuclear SOX9
Structure (SMILES) | nuclear SOX9 intensity
CN1CCN(C(c2ccccc2)c2ccc(Cl)cc2)CC1 (centres unmarked) | 215 % of DMSO
CO[C@@]1(NC(=O)Cc2cccs2)C(=O)N2C(C(=O)O)=C(COC(N)=O)CS[C@@H]21 | 90 % of DMSO
NC(=O)c1cc[n+](CC2=C(C(=O)[O-])N3C(=O)[C@@H](NC(=O)[C@@H](c4ccccc4)S(=O)(=O)O)[C@H]3SC2)cc1 | 101 % of DMSO
COc1cc(N2CCN(C)CC2)ccc1Nc1ncc2c(n1)N(C)c1ccccc1C(=O)N2 | 214 % of DMSO
C[N+](C)(C)CCCCCC[N+](C)(C)C | 113 % of DMSO
O=C1NCCc2[nH]c(-c3ccncc3)cc21 | 63.2 % of DMSO
CCS(=O)(=O)N(Cc1cccnc1)c1cccc(-c2ccc(C#N)cc2)c1 | 113 % of DMSO

Excerpt of the above (set 1):
cell line | technique | notes | viability
sample B colorectal tumour organoid |  | replicate 2 | 128%
sample I colorectal tumour organoid |  |  | 108%
normal-adjacent epithelium patient-derived organoids sample H | CellTiter-Glo |  | 91.9% and 103%
colorectal tumour organoids |  |  | 107%
